Published values gathered from unrelated publications.
Each numbered part is a random draw from the data of one study; scales do not carry over between parts. Substitutions count along the parent as printed.

Set 1 — technique: protein-binding microarray; form: double-stranded DNA, one strand shown; sample: in vitro; tested at: 2540 nM top; notes: 60-bp whole probe; with: salmon DNA 0.4 mg/ml; baseline: random background probes; direction: higher = stronger binding; quantity: fitted relative affinity; shared flanks, not repeated: GCCTAGCAC … GTCTTGATTCGCTTGACGCTGCTG
Target: Interferon regulatory factor 3, full length, phosphomimetic (IRF3, Homo sapiens, UniProt Q14653, residues 1-427, S386D/S396D/S398D/S402D/T404D/S405D)
Residues (chain): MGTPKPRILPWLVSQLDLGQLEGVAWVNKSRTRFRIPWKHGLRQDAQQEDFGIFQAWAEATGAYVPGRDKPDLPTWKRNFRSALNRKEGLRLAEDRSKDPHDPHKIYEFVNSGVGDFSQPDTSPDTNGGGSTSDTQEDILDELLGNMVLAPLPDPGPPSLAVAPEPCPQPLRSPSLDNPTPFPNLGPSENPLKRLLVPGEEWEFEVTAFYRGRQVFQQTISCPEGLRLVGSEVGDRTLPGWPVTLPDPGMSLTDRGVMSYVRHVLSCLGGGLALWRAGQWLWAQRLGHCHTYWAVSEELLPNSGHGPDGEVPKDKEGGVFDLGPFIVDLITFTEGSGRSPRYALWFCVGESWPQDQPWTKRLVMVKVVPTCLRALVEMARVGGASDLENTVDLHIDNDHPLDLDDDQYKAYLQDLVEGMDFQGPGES
GACGGTCTCGGATTGGGGACGTGCTAG: 0.575 z-score
TTAGATATCAGACTGGATGAGTGCTAG: 0.151 z-score
TTAAAACTGGGGTTTCGATTAGTGCTA: 1.56 z-score
TTAGGACTGGTGACTGGGTTAGTGCTA: -1.09 z-score
TTAGGTTTCGGTTTCCGTTAGTGCTAG: 11.4 z-score
TTAGGTATCGACCTTCGGTTAGTGCTA: 0.351 z-score
TCATTTAGAAATTTCTTACTGTGCTAG: 1.58 z-score
GACGAACTGGGGTTTAGAGACGTGCTA: -0.619 z-score
TTAGATCTCAGAATCGATTAGTGCTAG: 0.505 z-score
TCAGGGCTACCTCTCTTACTGTGCTAG: -0.927 z-score
CTGTCATCATCGTTCCCAGCGTGCTAG: 0.305 z-score
GACGGTATCGCTATCGGGACGTGCTAG: 2.57 z-score
TCAATCTTCAAGACTCATACTGTGCTA: 0.354 z-score
TTCGGTTTCCTTTTCCTTTAGTGCTAG: 11.8 z-score
TTGGGTATCCTTTTCCTTTAGTGCTAG: 6.47 z-score
GACGGTCGCCTACTGCTGACGTGCTAG: -0.226 z-score
TTAGAACTGAGACGGGATTAGTGCTAG: -0.39 z-score
GACAGTATCGGACTGGGGACGTGCTAG: 1.53 z-score
AACGGACTGGACACTGGGGACGTGCTA: -0.557 z-score
TTAGTTTTCCTTCTCCTTTAGTGCTAG: 7.8 z-score
TTAGATTTCAGTTCCGATTAGTGCTAG: 3.92 z-score
TCAAGTTTCTCCTTTGTACTGTGCTAG: 1.44 z-score
GACGGTTTCGGGACTGGGCACGTGCTA: 4.79 z-score
CTAGAACTGGGGACTGGATTAGTGCTA: -0.631 z-score
TCACTAATAAATATGAGACTGTGCTAG: 0.053 z-score

Set 2 — technique: RNA Bind-n-Seq; form: RNA; sample: in vitro; tested at: 365 nM; baseline: no-protein control; direction: higher = stronger binding; quantity: RBNS enrichment (R)
Target: RNA binding protein fox-1 homolog 2, RRM domain, GST-SBP tag (RBFOX2, Homo sapiens, UniProt O43251-10, residues 100-194)
Notes: natural RNA segment, single round, ends assumed
Construct (chain): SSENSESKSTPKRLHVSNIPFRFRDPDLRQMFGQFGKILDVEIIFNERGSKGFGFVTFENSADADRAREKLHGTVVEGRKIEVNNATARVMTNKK
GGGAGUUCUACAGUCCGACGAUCUUGGAAAAAACCCUCAAACUAAUAUUCUUGUCUGUUCCAGUCUUAUAAAUAAAACUUAUAAUGCAUGUAUUGUUUUGUUGGUGAGUAUUCAUAGCACUGUUUCGAGAUAAUGGAAUUCUCGGGUGCCAA: 3.03
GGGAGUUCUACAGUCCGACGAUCCUCACUAAAGCAUGAAAUGUGAAUUUUUAUUGUUGUACAUACGAUUUAAGGUAUUUAAAGUAUUUUCUUCUCUGUGAGAAGGUUUAUUGUUAAUACAAGGUAUAAUAAAAUGGAAUUCUCGGGUGCCAA: 13
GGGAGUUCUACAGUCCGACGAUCGGGUUUGGGCCCUCAGAACCCUGCCCUGCAUCUUUGUACAGCAUCUGUGCCAUGGAUUUUGUUUUCCUUGGGGUAUUCUUGAUGUGAAGAUAAUUUGCAUACUCUAUUGUUGGAAUUCUCGGGUGCCAA: 1.24
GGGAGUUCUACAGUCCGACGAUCCUGCAACAGGAAGCAGGAAGGUUGCUCGCCCUGUUUCCAGAGAUUGCAAUAAAGCAGUGUGAGGGGAGCACGGGCCCCGUGUAUUUGUCGAGAGGAUGAAGGAAGGUUGCUGGAAUUCUCGGGUGCCAA: 1.88
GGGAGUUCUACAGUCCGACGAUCCAGACUGUCUCCCAUCUGUUUCUCUCCCUCCUCCCAGAGCUGUGAGGAUGAAGGCAAGACUGAUUGUUCUGAGCUGUUACCUGCCAAGGCUUUUGGAUCAUUUCGGGCCAUGGAAUUCUCGGGUGCCAA: 0.601
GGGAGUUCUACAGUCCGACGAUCAGUGACCCUGUUUUGUGGCAUUCAUGCAAAACAUGCUGAGGGCUUUGUUCAUCUGGUCAUCGUGUCCAAAUUUCAGUCAUGUUUGUAGCAAGAUUUUGGAAGCAUUCAUAUGGAAUUCUCGGGUGCCAA: 2.04
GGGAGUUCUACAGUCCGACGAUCUGCACGCAGUAUCCCACUGUAGAGGAGAGCUCAGAGUGGGGGAGUAGGAGCCCUUGCUUGGGGUACAGGUUUUAUAAAUCUGAGCCUUCAACAGUACCUCUCUUCUAAUGUGGAAUUCUCGGGUGCCAA: 0.395
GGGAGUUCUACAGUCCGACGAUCCACAAGCAGACACUGCUGGACUUAGAAGUUUCUAUUUGAGUUCCUUAAACUACAAAACUAAUAUGUAUGUGUACCAAACUGAUUUAAAAUAAAUGUUUAUUAGUCUCUUGUGGAAUUCUCGGGUGCCAA: 0.821
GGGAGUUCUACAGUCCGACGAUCAUCCCUUCCCAGCAAUGAUGACAGGAAAAUGGAAGUGGCAAGUUUUCCUUCUAGUAUCCGAAGAAUCUGAGCCUUCAAUGUUAAAAUUUUUCUUAAUUAAAAUGUGCUUUUGGAAUUCUCGGGUGCCAA: 0.495
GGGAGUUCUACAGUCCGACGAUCAGCAAGUUCCAUGAUAUUAAAUCCAGGUCUGCAUUGGCCCGGGGCAAGAGUUUAACAUCUUCGGCCCUGCAUUCCUACAUCUUGUGUCUGUACACGUUCUUAAGCAGCGUUGGAAUUCUCGGGUGCCAA: 0.525
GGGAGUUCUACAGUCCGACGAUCUGUCUGCACUGAGAAACCUCCCCGGGUGAUGUCUGCAAAGUCUGUGCUGUCCGUGCCCCAGGCUGGGAGAGCUAUCUGGGGAGGGGGAGAGGAGGCCGAGCAGAAUACACUGGAAUUCUCGGGUGCCAA: 0.358
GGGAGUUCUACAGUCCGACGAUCCUGGUAAAAGGGAAUUCAGAAGAUUGCCUUAGAGUCUAAUUCCCCCAUGAAAGAUUAUUAAUUACAUCUCACUGUAGGGUCUUUCUGGUAUUGAGGGGAGUCAGCAUGUAUGGAAUUCUCGGGUGCCAA: 12.9

Set 3 — target: CCNE2, cyclin fold, Cln2 fusion (human); technique: yeast growth competition, sequencing; sample: yeast; notes: weak parent motif; baseline: not given; direction: higher = stronger binding; quantity: normalised enrichment score
Starting sequence: CDT1 docking peptide (human); PPARRRLRLSVDE
P1A: 0.661
R5K L9F: 1.02
R4A: 0.719
V11A: 0.643
R6A: 1.03
S10A: 0.0807
L9A: 0.336

Set 4 — technique: universal PBM; form: double-stranded DNA, one strand shown; sample: in vitro; tested at: not given; direction: higher = stronger binding; quantity: E-score
Target: Sal-like protein 4, full length isoform B (SALL4, Homo sapiens, UniProt Q9UJQ4-2, residues 1-616)
Notes: 8-mer, flanks averaged, mean of replicates
CATCCAGC: 0.0272
AGATGGCG: -0.186
ACGGATCG: -0.154
GCTGGTCA: -0.135
CAAATGAC: 0.1
GCTTAGCC: -0.209
GCGATTGA: -0.00053
GTGGCCCA: -0.277
CCCAGCAG: -0.207
CCCCGCCG: -0.349
AGTGGCAG: -0.196
CAGGTCTC: -0.229
GAAGACCC: -0.17
ACTTACAA: 0.336
CTAACGAG: -0.0254
ACGTCAGT: -0.166
AAGCAACC: -0.137
TTGAACAA: 0.0727
AGGTTCCA: -0.0952
CGATTGTC: 0.0087
AGTCGGGC: -0.317
ACGCCGAA: -0.174

Set 5 — technique: competition protein-binding microarray; form: double-stranded DNA, one strand shown; sample: in vitro; tested at: 2 µM; with: Pho4 competitor, 0.05 µM; direction: higher = stronger binding; quantity: fluorescence intensity
Target: Centromere-binding protein 1, full length, His-tagged (CBF1, Saccharomyces cerevisiae, UniProt P17106, residues 1-351)
UniProt P17106, sequence (whole entry, looked up): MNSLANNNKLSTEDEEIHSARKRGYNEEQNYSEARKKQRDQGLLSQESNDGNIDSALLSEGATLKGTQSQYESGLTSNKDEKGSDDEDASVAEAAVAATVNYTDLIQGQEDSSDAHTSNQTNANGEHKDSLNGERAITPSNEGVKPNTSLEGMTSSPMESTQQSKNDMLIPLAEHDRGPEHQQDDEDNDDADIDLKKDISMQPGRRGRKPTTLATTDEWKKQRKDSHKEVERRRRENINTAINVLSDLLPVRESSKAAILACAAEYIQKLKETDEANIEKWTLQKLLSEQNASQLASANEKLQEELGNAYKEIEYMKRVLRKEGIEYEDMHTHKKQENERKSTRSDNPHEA
Notes: whole 60-bp probe, lowest competitor level
TGCGCAACAACTTGCGTTGTGGGTGTATGTCTAGAAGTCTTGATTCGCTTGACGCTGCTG: 65.4 a.u.
AAATTACTAAGTTGTCACCGGACTTACCCCGTATGAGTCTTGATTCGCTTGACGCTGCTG: 85.7 a.u.
CTTTCCCGATCTTGCTTCGTGGGTGTAGCACATTTGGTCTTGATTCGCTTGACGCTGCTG: 76.4 a.u.
AAAGCGGTAATTTGTTAGGTGGGTGCAGATATCTATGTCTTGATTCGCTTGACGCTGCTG: 87.6 a.u.
CTTCTGTAAATTTGTCGTGTGGGTGGACGCGCCCCGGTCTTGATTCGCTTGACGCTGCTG: 68.2 a.u.
ACCGTTGGTAGAAGCATCGTGGGTAGAAATGGTGGAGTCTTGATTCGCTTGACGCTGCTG: 75.8 a.u.
TTCACAGATATTTCTTCCGTGATGGTTTAATGGTCAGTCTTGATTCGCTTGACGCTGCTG: 93.8 a.u.
CTTTCCCGATCTTGGAACGTGGGTGTAGCACATTTGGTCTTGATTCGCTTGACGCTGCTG: 82.8 a.u.
CTAACGAAGGTTTGCTCGGTGGGTGACAAGCCAAGTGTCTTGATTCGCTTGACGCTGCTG: 78.5 a.u.
CCTTGTTTACCGTTCGCCGTGATGGCTCCTTGAGCAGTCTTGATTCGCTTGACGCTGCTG: 55.5 a.u.
AAAGCGGTAATTTGTTAAGTGGGTGCAGATATCTATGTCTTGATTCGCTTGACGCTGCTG: 82.6 a.u.
ATTTTTCCTGTCCTGCAATTGTTCTCGAGGATTGCTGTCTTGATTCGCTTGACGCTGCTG: 70.8 a.u.
GCGCTTGCATCGCTGCATGTGTTAACCGAAAAGTTTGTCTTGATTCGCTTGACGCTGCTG: 80.2 a.u.
GAGTTTGATTCCAAACTCGTGGTGATACCAACGAAGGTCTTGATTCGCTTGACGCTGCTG: 102 a.u.
CGGGGTTAAGTTTGTTATGTGGGTGGCTTGCAGCAGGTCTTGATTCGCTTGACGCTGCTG: 74.4 a.u.
CATCCGCACATCGCGCATGTGTGGGTGTATATGCCCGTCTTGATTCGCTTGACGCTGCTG: 76.7 a.u.
CACCTCCCCCTAAATCTCGTGATGGGAGTTTCAAGTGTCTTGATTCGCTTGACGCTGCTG: 496 a.u.
CTAACGAAGGTTTTTCACGTGATCTACAAGCCAAGTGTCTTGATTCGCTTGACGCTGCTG: 7300 a.u.
ACTCAAAAGCGTACTCACGTTTTGAAGAAGAACCCAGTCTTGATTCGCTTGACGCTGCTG: 175 a.u.
TTCATTGTAGATAGTACCGTGATGGCCTTCGGCAGGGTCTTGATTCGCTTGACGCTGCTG: 98.1 a.u.
GAGGCAAAATAAGATCGTGTGTTTCAAATTGCCTTAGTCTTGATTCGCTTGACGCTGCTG: 87.1 a.u.
TATTTGGCCTTTTTGCACGTCGACTGGGCCATTTCCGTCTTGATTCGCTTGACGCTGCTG: 77.3 a.u.

Excerpt of the above (set 5):
TATTTGGCCTTTTTGCACGTCGACTGGGCCATTTCCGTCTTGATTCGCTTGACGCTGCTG: 77.3 a.u.
CATCCGCACATCGCGCATGTGTGGGTGTATATGCCCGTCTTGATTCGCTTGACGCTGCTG: 76.7 a.u.
CGGGGTTAAGTTTGTTATGTGGGTGGCTTGCAGCAGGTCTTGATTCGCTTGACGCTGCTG: 74.4 a.u.
GCGCTTGCATCGCTGCATGTGTTAACCGAAAAGTTTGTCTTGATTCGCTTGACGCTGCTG: 80.2 a.u.
CACCTCCCCCTAAATCTCGTGATGGGAGTTTCAAGTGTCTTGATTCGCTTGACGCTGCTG: 496 a.u.
AAAGCGGTAATTTGTTAGGTGGGTGCAGATATCTATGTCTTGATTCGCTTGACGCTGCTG: 87.6 a.u.
GAGTTTGATTCCAAACTCGTGGTGATACCAACGAAGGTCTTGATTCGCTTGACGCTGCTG: 102 a.u.
TTCATTGTAGATAGTACCGTGATGGCCTTCGGCAGGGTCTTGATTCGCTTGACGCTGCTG: 98.1 a.u.
